Results collected from several papers.
A part holds a random share of what one study measured. Changes are numbered by the printed parent chain.

Series 1 — technique: RNA Bind-n-Seq; molecule type: RNA; matrix: in vitro; concentration: 365 nM; relative to: no-protein control; reading: higher = stronger binding
Target: RNA binding protein fox-1 homolog 2, RRM domain, GST-SBP tag (RBFOX2, Homo sapiens, UniProt O43251-10, residues 100-194)
Notes: natural RNA segment, single round, ends assumed
All sequences stand within: GGGAGUUCUACAGUCCGACGAUC … UGGAAUUCUCGGGUGCCAA
Oligonucleotide | RBNS enrichment (R)
GGGCCUUUGAAAUAUAGGUAUGCACCUGAGGUUGGGGGAGGGUCUGCACUCCCAAACCCCAGCGCAGUGUCCUUUCCCUGCUGCCGACAGGAACCUGGGGCUGAACAGGU | 0.52
UCCCCUAGGUGGUCUCAUAAUUCCAUUUGUGGAGAGAACAGGAGGGCCAGAUAGAUAGGUCCUAGCAGAAGGCAUUGAGGUGAGGGAUCAUUUUGGGUCAGACAUCAAUG | 0.711
AGCAGCUACAGAAAGGGUGUGAGGCCCCAAAACCGUGUGCUGAGGGGCGAAUGCGUCGCCACCCCUGACCCCGCAUCUGGAGGGCGGGGCUUUGCUUGAGAAGACCCCAG | 1.16
AUAUGUAGCUAACAAAUUGACCUAGUUUCUGUACUUUUUUGGUUUUGUACUAAAGUUUAUAGGUCUGUGCCAGCUAGAGAGGAGUUGCUGUCAUUGCUAGUCGUGCUCUA | 0.479
GGACCUAGAAGUUGAGUUAUUACUAAAAACUUUGAGUGCGAAGAUAUUACUCAUUAACCAGAUAACAAGUGAAUAUGCUGUAGCAUCAACAUAAUUCAAAAGAGUAAAGA | 0.435
AGCUGGGACAAGGCCUUGCCCCCUUCCUGCCAUCUCCCCAACCCACAGUCUCUCCACCUUUGCUUCUGAAUUCUUGUUUUUGAGCAAUAAACAGAAAAUCGCCACUUGUA | 0.434
UAGCAAACAAGUUAACAAAUGAUAAUAAAUGCAAUUCAGUUUUGGAUGUUGGUCCACAUUGUCAAGAAGUCAUGUAAUAAUAAUAAAUACAUAUUCUACCUGCUACUUGA | 0.385

Series 2 — target: CCND2, cyclin fold, Cln2 fusion (human); technique: yeast growth competition, sequencing; matrix: yeast; notes: weak parent motif; relative to: not given; reading: higher = stronger binding
Starting sequence: PKMYT1 docking peptide (human); SFEPRNLLSLFED
Variant | normalised enrichment score
SFEPRNLLSLFEV [D13V] | 0.0377
SFESRNLLSLFED [P4S] | 0.088
SFEPRQLLSLFED [N6Q] | 0.16
SFEPRNQLSLFED [L7Q] | 0.043

Series 3 — technique: protein binding microarray; molecule type: double-stranded DNA, one strand shown; matrix: in vitro; concentration: not given; relative to: not given; reading: higher = stronger binding
Target: Histone acetyltransferase KAT6A, both winged helices, GST fusion (KAT6A, Homo sapiens, UniProt Q92794, residues 1-181)
Notes: 8-mer, flanks averaged, mean of 2 arrays, mostly near background
Construct (chain): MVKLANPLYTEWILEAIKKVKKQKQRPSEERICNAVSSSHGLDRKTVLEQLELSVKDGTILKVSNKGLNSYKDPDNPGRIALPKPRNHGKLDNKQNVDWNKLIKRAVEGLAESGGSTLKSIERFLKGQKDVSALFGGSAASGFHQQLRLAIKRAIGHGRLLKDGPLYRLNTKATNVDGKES
Oligonucleotide | E-score
TCAGATCA | -0.163
CCATTTAC | -0.0429
CAGATTGA | 0.04
ACGTCTCT | -0.0517
CATAAGCC | -0.0063

Single results of other studies
Molecule | target | test | system | conditions | scale | measurement | result
PhoQ, residues 284 288 289 292 302 303 ASTSDA | PhoP, residues 12 14 15 18 19 LHTVM (Escherichia coli, UniProt P23836) | Sort-seq, item: YFP reporter | E. coli | PhoQ-PhoP variant library, with: 10 µM Mg2+ | relative to: high Mg2+ state, higher = stronger signaling | fold induction | 14.2

Some of these lines once more (series 1):
Oligonucleotide | RBNS enrichment (R)
GGACCUAGAAGUUGAGUUAUUACUAAAAACUUUGAGUGCGAAGAUAUUACUCAUUAACCAGAUAACAAGUGAAUAUGCUGUAGCAUCAACAUAAUUCAAAAGAGUAAAGA | 0.435
AGCUGGGACAAGGCCUUGCCCCCUUCCUGCCAUCUCCCCAACCCACAGUCUCUCCACCUUUGCUUCUGAAUUCUUGUUUUUGAGCAAUAAACAGAAAAUCGCCACUUGUA | 0.434
